{"data": "Experimental data collected from several papers", "Genome polyprotein NS2B-NS3 protease": "Genome polyprotein, NS2B-NS3 protease (dengue virus type 2, UniProt P29990)", "note": "Compare with care: the assays were run in different laboratories. Several values in a cell are separate wells, animals, samples, runs or records. Numbers after ± are the reported error."}
{"Compound": "COc1cc(N2CCN(C(=O)C3CCCN3)CC2)ccc1Nc1ncc(Cl)c(Nc2ccccc2P(C)(C)=O)n1 (centres unmarked)", "target or system": "Ba/F3 EML4-ALK", "assay": "cell growth or viability, CCK-8", "setting": "1 µM, 30 min", "quantity": "viability", "result": "99% and 97% and 100%"}
{"Compound": "N=C(N)NCc1cccc(NC(=O)c2cc(-c3ccccc3)n(-c3ccccc3)n2)c1", "target or system": "Genome polyprotein NS2B-NS3 protease", "assay": "reporter gene", "system": "HeLa", "quantity": "EC50", "result": "16 µM"}
{"Compound": "CN1CCCNC(=O)c2cccc(c2)C(=O)NCCCN(C)CCCNc2cccc3c2C(=O)c2cccc(c2C3=O)NCCC1", "target or system": "HSC-2", "assay": "cell growth or viability, CCK-8", "setting": "1 nM, 48 h", "quantity": "viability", "result": "103%"}
{"Compound": "[BH3-][P+]1(c2ccccc2)CCCCC1", "target or system": "SW-620", "assay": "trypan blue", "setting": "IC50, 72 h", "quantity": "viability", "result": "93.7%"}
{"Compound": "CC1(C)C(=CC=C2CCCC(C=CC3=[N+](CCC[N+](C)(C)C)c4ccc(S(=O)(=O)O)cc4C3(C)C)=C2SCCOCCOCCC(=O)O)N(CCC[N+](C)(C)C)c2ccc(S(=O)(=O)O)cc21", "target or system": "H-1793", "assay": "MTT", "setting": "up to 100 µM", "quantity": "viability", "result": "~100%"}
{"Compound": "O=C(O)c1c(O)cc(O[C@@H]2O[C@H](CO)[C@@H](O)[C@H](O)[C@H]2O)cc1/C=C/c1ccccc1", "target or system": "HT-22", "assay": "cell growth or viability, crystal violet", "setting": "50 µM, 48 h", "quantity": "viability", "result": "> 50%"}
{"Compound": "Cc1cc(Cl)cc(-c2ccnc3cc(CN4C(=O)C5C(C4=O)C5(C)C)sc23)c1C[C@@H]1CNCCO1 (some centres unmarked)", "target or system": "CHP-212", "assay": "SRB", "setting": "0.1562 µM, single replicate", "quantity": "viability", "result": "79.2% and 103% and 96.5%"}
{"Compound": "O=C(c1cc(-c2ccccc2)n(-c2ccccc2)n1)N1CCc2nc[nH]c2C1", "target or system": "Genome polyprotein NS2B-NS3 protease", "assay": "reporter gene", "system": "HeLa", "quantity": "EC50", "result": "16 µM"}
{"Compound": "COc1cc(Oc2c(O)c(Cl)c(C)c(Cl)c2OC)c(C(=O)O)c(C)c1O", "target or system": "T47D", "assay": "MTT", "setting": "10 or 50 µM, 48 h", "quantity": "viability", "result": "104 ± 5.9%"}
{"Compound": "COc1ccc(Cn2cc(CCO[C@@H]3O[C@H]4[C@H](OC[C@H]4O)[C@H]3O)nn2)cc1", "target or system": "HCT-116", "assay": "cytotoxicity, CellTiter-Glo", "setting": "up to 30 µM, 72 h", "quantity": "viability", "result": "not toxic"}
{"Compound": "COc1cc(Oc2c(O)cc(C)cc2OC)c(C(=O)O)c(C)c1O", "target or system": "T47D", "assay": "MTT", "setting": "10 or 50 µM, 48 h", "quantity": "viability", "result": "106 ± 5.8%"}
{"Compound": "Cc1ncsc1-c1ccc(C(C)NC(=O)C2CC(O)CN2C(=O)C(NC(=O)CCCCCCCCCCN2CCCC(Nc3ncc(Cl)c(Nc4ccccc4S(=O)(=O)C(C)C)n3)C2)C(C)(C)C)cc1 (centres unmarked)", "target or system": "22Rv1", "assay": "RNA-seq, measured: NEB", "setting": "concentration not given", "scale": "relative to: DMSO", "quantity": "log2 fold change", "result": -1.78}
{"Compound": "COC1CN([C@H]2CC[C@H]([C@@]3(C)Oc4c(Cl)cc(C(=O)NCc5c(SC)cc(C)[nH]c5=O)c(C)c4O3)CC2)C1", "assay": "RNA-seq, measured: RUNDC3A", "system": "human, whole blood", "setting": "dose not given, 24 h", "scale": "relative to: pretreatment baseline", "quantity": "log2 fold change", "result": 5.76}
{"Compound": "COc1cc(Oc2c(O)cc(C)c(Br)c2OC)c(C(=O)O)c(C)c1O", "target or system": "T47D", "assay": "MTT", "setting": "10 or 50 µM, 48 h", "quantity": "viability", "result": "112 ± 4.7%"}
